Assay results gathered from unrelated publications.
Compare with care: the assays were run in different laboratories. “And” joins repeats or separate records; there may be more than shown. ± marks the error that the study gave.
Genome polyprotein NS2B-NS3 protease: Genome polyprotein, NS2B-NS3 protease (dengue virus type 2, UniProt P29990)

Cc1cc(-c2ccc(C(=O)[C@@H]3CCCC[C@H]3C(=O)Nc3cnn4c3C(=O)NCC4)cc2)[nH]n1 — radioactivity recovery per interval (human, faeces; oral, 200 mg, 144-168 h; reference: dose): 2.02% and 0.06% and 0.1% and 0.2%
CCCCN1C(=O)c2cccc3c(NCCCCCCN4CCOCC4)ccc(c23)C1=O — fluorescence lifetime (dichloromethane): 10.6 ns
CC(C)(C)[C@H](NC(=O)C(F)F)C(=O)N1C[C@H]2[C@@H]([C@H]1C(=O)N[C@H](C#N)C[C@@H]1CCCNC1=O)C2(C)C — intrinsic clearance (mouse liver microsomes; scaled to liver): 331 mL/min/kg
CCCCN1C(=O)c2cccc3c(NCCCCCCCCN4CCOCC4)ccc(c23)C1=O — absorption maximum (ethylene glycol): 448 nm
CCC(=O)N(C)c1ccc(Cl)c(Cl)c1 — plasma concentration (LC-MS/MS; mouse C57BL/6 female, plasma; subcutaneous, 2 mg/kg, 0.5 h): 209 ng/mL and 261 ng/mL
COc1ccc(N2CCOCC2)c2sc(NC(=O)c3ccnc(CN4CCCC4)c3)nc12 — pH of saturated solution (in situ salt screening; 0.1 M hydrochloric acid): 1.33
C[N+](C)(CCOCCOCCOCCNC(=S)Nc1ccc(C[C@H]2CN(CC(=O)[O-])CCN(CC(=O)[O-])CCN2CC(=O)[O-])cc1)C[c-]1cccc1.[64Cu+2].[Fe+2].c1cc[cH-]c1 — tumour uptake (nude mice, BxPC-3 xenograft, tumour; 8 h, no pretargeting): 0.2 %ID/g
CC(C)(O)c1ncc([S@](N)(=O)=NC(=O)Nc2c3c(cc4c2CCC4)CCC3)s1 — nervous system adverse events (healthy human; oral, 10 mg single dose, capsule formulation): 17%
CN[C@H](CC(C)C)C(=O)N[C@H]1C(=O)N[C@@H](CC(N)=O)C(=O)N[C@H]2CN[C@H]3C(=O)N[C@H](C(=O)N[C@H](C(=O)NCCCNC(=N)N)c4cc(O)cc(O)c4-c4cc3ccc4O)[C@H](O)c3ccc(c(Cl)c3)Oc3cc2cc(c3O[C@@H]2O[C@H](CO)[C@@H](O)[C@H](O)[C@H]2O[C@H]2C[C@](C)(NCc3ccc(-c4ccc(Cl)cc4)cc3)[C@H](O)[C@H](C)O2)Oc2ccc(cc2Cl)[C@H]1O — clearance (mouse; intravenous, 10 mg/kg): 0.47 mL/min/kg
N=C(N)NCCC[C@@H]1NC(=O)[C@H](CO)NC(=O)[C@@H](NC(=O)[C@H](CO)NC(=O)[C@H](CO)NC(=O)[C@H](Cc2c[nH]c3ccccc23)NC(=O)CNC(=O)[C@H](CO)NC(=O)[C@@H](N)Cc2c[nH]c3ccccc23)CSSC[C@@H](C(=O)NCC(=O)O)NC(=O)[C@H](CO)NC1=O — clearance (patients, plasma; intravenous, 5 mg/kg, thrice weekly, median): 1400 L/h
O=C(Nc1cnccc1-c1ccc([18F])nc1)c1ccnc(NC(=O)C2CC2)c1 — SUV (ex vivo gamma counting; GSK-3β transgenic mice, early-stage, liver; intravenous, 120 min, mean, P-gp inhibitor pretreatment, added: tariquidar 15 mg/kg iv): 6.08
CC(C)[C@H](NC(=O)[C@H](Cc1c[nH]c2ccccc12)NC(=O)[C@H](CCCNC(=N)N)NC(=O)[C@H](CCCNC(=N)N)NC(=O)[C@@H](NC(=O)[C@@H](NC(=O)[C@H](CCCNC(=N)N)NC(=O)[C@@H](NC(=O)[C@@H](NC(=O)[C@H](CCCNC(=N)N)NC(=O)[C@H](CCCNC(=N)N)NC(=O)[C@@H](NC(=O)[C@H](Cc1c[nH]c2ccccc12)NC(=O)[C@H](CCCNC(=N)N)NC(=O)[C@H](CCCNC(=N)N)NC(=O)[C@@H](NC(=O)[C@H](CCCNC(=N)N)NC(=O)[C@H](CCCNC(=N)N)NC(=O)[C@@H](NC(=O)[C@H](Cc1c[nH]c2ccccc12)NC(=O)[C@H](CCCNC(=N)N)NC(=O)[C@@H](N)CCCNC(=N)N)C(C)C)C(C)C)C(C)C)C(C)C)C(C)C)C(C)C)C(C)C)C(=O)N[C@@H](CCCNC(=N)N)C(=O)N[C@@H](CCCNC(=N)N)C(=O)O — urinary creatinine excretion (CD-1 mice; intravenous, 15 mg/kg, 6-24 h): 11.2 µg/day/g body weight
Cc1c(Cc2ccc(OC(C)C(=O)O)cc2)c2ccc(C(=O)NC(C)c3ccc(C(C)(C)C)cc3)cc2n1C (mixture of isomers) — half-life (metabolic stability; mouse, liver microsomes): > 1 h
COC1CN([C@H]2CC[C@H]([C@@]3(C)Oc4c(Cl)cc(C(=O)NCc5c(SC)cc(C)[nH]c5=O)c(C)c4O3)CC2)C1 — log2 fold change (RNA-seq, refers to: AFAP1L1; human, whole blood; dose not given, 24 h; reference: pretreatment baseline): 1.72
CCCCN1C(=O)c2cccc3c(NCCCCN4CCOCC4)ccc(c23)C1=O — absorption maximum (dioxane): 425 nm
COc1ccnc(C(=O)N[C@H]2COC(=O)[C@H](Cc3ccccc3)[C@@H](OC(=O)C(C)C)[C@H](C)OC2=O)c1O — residue level (cabbage; foliar, dose not given): 0.015 mg/kg
CN([O-])C(=O)CN1CCN(CC(=O)N(C)[O-])CCN(Cc2ccccn2)CC1.[89Zr+4] — tracer uptake (mouse, blood; intravenous, 24 h): 0.33 %ID/g
C=C(NC(=O)c1csc(-c2nc3c(cc2O)-c2nc(cs2)C(=O)NC(C(C)O)C(=O)NC(=C(C)OC)c2nc(cs2)C(=O)NC2c4nc(cs4)C(=O)NC(COC(=O)c4c5c6c(cccc6n4O)COC(=O)C(OC4CC(C)(O)C(N(C)C)C(C)O4)C2OC5)c2nc-3cs2)n1)C(N)=O (stereo not drawn) — MRT(0-last) (cynomolgus monkey, female, plasma; intravenous infusion, 1 mg/kg single dose): 0.89 h
CCCCCCCCCCCCCCCOC(=O)/C=C/c1ccc(O)c(O)c1 — hemolysis (red blood cells; concentration not given; reference: Triton X-100): 0.12%
N=C(N)NCc1cccc(CNC(=O)c2cc(-c3ccccc3)n(-c3ccccc3)n2)c1 — EC50 (Genome polyprotein NS2B-NS3 protease; reporter gene; HeLa): 30 µM
Cc1[nH]nc2c1N=C(c1ccccc1Cl)c1cnc(N3CCOCC3)cc1N2 — half-life (male beagle dog, plasma; intravenous, 1 mg/kg): 7.64 h
C=CC(=O)Nc1cc(Nc2nccc(-c3cn(C)c4ccccc34)n2)c(OC)cc1N(C)CCNC — recovery (storage stability; human dried blood spots; 24 h, on ice, low QC level): 74.2%
COc1cccc(OC)c1-c1cc(C(=O)NC2(C(=O)O)C3CC4CC(C3)CC2C4)nn1-c1ccc(C(=O)N(C)CCCN(C)C(=O)[C@H](CCCCNC(=O)[C@H](CC(C)C)NC(=O)C2OC2C(=O)O)NC(=O)CN2CCN(CC(=O)[O-])CCN(CC(=O)[O-])CCN(CC(=O)[O-])CC2)cc1C(C)C.[177Lu+3] (mixture of isomers) — tumour-to-liver ratio (mouse, HT-29 xenograft; 4 h post injection, biodistribution; reference: tumour over liver uptake): 5.54
CN1CCN(C(=S)N/N=C/c2ccccc2O)CC1 — clearance (plasma; intravenous, 30 mg/kg): 170 ± 19.5 mL/min/kg
Cc1ncsc1-c1ccc(C(C)NC(=O)C2CC(O)CN2C(=O)C(NC(=O)CCCCCCCCCCN2CCCC(Nc3ncc(Cl)c(Nc4ccccc4S(=O)(=O)C(C)C)n3)C2)C(C)(C)C)cc1 (stereo not drawn) — log2 fold change (22Rv1; RNA-seq, refers to: MR1 mRNA; concentration not given; reference: DMSO): -1.76
CN1CCC[C@]1(C)/C=C/S(=O)(=O)NC(=O)Nc1c2c(cc3c1CCC3)CC=C2 — AUC(0-tau) (human, plasma; oral, 50 mg twice daily of parent drug, day 14, metabolite of dosed drug): 262 µg·h/mL
CN(O)C(=O)CCC(=O)NCCCN(CCCCN(CCCNC(=O)CCC(=O)N(C)O)C(=O)CCC(=O)N(C)O)C(=O)CCC(=O)N(C)O.[89Zr] — intact complex (radio-TLC; aqueous buffer; 7 d, pH 7, 37 °C, 89Zr-labelled complex, added: DTPA 1000-fold excess): 91.9 ± 0.1%
O=C(Nc1cnccc1-c1ccc([18F])cc1)c1ccnc(NC(=O)C2CC2)c1 — SUV (PET imaging; FVB/NJ mice, both sexes, brain; intravenous, 120 min post-injection): 0.09
O=C(Nc1cccc(N2CCNCC2)c1)c1cc(-c2ccccc2)n(-c2ccccc2)n1 — EC50 (Genome polyprotein NS2B-NS3 protease; reporter gene; HeLa): > 16 µM
CN1CCC[C@]1(C)/C=C/S(=O)(=O)NC(=O)Nc1c2c(cc3c1CCC3O)CCC2 (stereo partly drawn) — AUC(0-tau) (human, plasma; oral, 50 mg twice daily of parent drug, day 14, metabolite of dosed drug): 350 µg·h/mL

Some of these lines once more:
CN[C@H](CC(C)C)C(=O)N[C@H]1C(=O)N[C@@H](CC(N)=O)C(=O)N[C@H]2CN[C@H]3C(=O)N[C@H](C(=O)N[C@H](C(=O)NCCCNC(=N)N)c4cc(O)cc(O)c4-c4cc3ccc4O)[C@H](O)c3ccc(c(Cl)c3)Oc3cc2cc(c3O[C@@H]2O[C@H](CO)[C@@H](O)[C@H](O)[C@H]2O[C@H]2C[C@](C)(NCc3ccc(-c4ccc(Cl)cc4)cc3)[C@H](O)[C@H](C)O2)Oc2ccc(cc2Cl)[C@H]1O — clearance (mouse; intravenous, 10 mg/kg): 0.47 mL/min/kg
N=C(N)NCCC[C@@H]1NC(=O)[C@H](CO)NC(=O)[C@@H](NC(=O)[C@H](CO)NC(=O)[C@H](CO)NC(=O)[C@H](Cc2c[nH]c3ccccc23)NC(=O)CNC(=O)[C@H](CO)NC(=O)[C@@H](N)Cc2c[nH]c3ccccc23)CSSC[C@@H](C(=O)NCC(=O)O)NC(=O)[C@H](CO)NC1=O — clearance (patients, plasma; intravenous, 5 mg/kg, thrice weekly, median): 1400 L/h
O=C(Nc1cnccc1-c1ccc([18F])nc1)c1ccnc(NC(=O)C2CC2)c1 — SUV (ex vivo gamma counting; GSK-3β transgenic mice, early-stage, liver; intravenous, 120 min, mean, P-gp inhibitor pretreatment, added: tariquidar 15 mg/kg iv): 6.08
